Results collected from several papers.
Lines come from different studies, so protocols differ. “And” joins repeats or separate records; there may be more than shown. Numbers after ± are the reported error.
CYP2D6: Cytochrome P450 2D6 (CYP2D6, Homo sapiens, UniProt P10635)
Sequence of UniProt P10635 (whole entry, looked up): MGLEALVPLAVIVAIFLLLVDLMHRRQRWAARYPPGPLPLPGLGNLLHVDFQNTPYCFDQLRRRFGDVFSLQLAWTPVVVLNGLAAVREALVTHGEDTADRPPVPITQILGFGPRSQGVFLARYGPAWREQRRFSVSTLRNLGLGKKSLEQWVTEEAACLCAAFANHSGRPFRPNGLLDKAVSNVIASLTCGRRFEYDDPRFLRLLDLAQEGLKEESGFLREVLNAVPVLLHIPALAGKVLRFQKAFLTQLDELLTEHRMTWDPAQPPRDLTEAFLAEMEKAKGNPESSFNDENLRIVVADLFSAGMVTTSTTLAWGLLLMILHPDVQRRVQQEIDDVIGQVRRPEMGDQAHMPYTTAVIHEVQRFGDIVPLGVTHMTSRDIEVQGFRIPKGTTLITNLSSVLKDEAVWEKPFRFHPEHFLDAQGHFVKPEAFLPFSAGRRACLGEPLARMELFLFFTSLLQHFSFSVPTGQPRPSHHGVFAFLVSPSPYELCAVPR
CYP1A2: Cytochrome P450 1A2 (CYP1A2, Homo sapiens, UniProt P05177)
Sequence of UniProt P05177 (whole entry, looked up): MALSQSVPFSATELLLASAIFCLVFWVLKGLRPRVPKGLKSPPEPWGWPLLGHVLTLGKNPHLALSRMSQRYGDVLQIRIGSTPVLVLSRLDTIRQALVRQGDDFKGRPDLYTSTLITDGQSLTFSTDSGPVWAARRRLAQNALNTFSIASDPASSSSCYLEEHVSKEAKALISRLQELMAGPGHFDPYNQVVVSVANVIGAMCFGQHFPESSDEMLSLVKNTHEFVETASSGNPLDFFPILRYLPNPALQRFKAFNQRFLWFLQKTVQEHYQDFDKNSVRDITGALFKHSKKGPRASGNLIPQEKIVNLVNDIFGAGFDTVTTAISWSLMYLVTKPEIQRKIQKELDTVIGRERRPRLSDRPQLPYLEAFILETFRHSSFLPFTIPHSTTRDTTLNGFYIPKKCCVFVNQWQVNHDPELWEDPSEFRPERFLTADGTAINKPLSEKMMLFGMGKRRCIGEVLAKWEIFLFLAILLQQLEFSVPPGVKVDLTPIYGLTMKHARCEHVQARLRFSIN
Sequence of UniProt P10632 (whole entry, looked up): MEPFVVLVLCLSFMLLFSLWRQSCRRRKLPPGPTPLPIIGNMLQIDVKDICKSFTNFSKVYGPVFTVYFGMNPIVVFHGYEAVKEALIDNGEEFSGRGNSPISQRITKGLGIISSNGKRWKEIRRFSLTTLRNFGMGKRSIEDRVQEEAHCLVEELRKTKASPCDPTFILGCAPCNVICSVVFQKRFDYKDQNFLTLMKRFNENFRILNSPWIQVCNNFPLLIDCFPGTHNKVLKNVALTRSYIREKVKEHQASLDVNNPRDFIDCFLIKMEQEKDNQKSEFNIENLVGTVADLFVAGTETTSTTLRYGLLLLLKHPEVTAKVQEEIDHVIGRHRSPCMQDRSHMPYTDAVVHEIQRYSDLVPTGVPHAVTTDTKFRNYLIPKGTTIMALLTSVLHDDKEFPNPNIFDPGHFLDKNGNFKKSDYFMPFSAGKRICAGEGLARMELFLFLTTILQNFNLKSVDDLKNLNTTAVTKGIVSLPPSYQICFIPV
Sequence of UniProt Q96JM7 (whole entry, looked up): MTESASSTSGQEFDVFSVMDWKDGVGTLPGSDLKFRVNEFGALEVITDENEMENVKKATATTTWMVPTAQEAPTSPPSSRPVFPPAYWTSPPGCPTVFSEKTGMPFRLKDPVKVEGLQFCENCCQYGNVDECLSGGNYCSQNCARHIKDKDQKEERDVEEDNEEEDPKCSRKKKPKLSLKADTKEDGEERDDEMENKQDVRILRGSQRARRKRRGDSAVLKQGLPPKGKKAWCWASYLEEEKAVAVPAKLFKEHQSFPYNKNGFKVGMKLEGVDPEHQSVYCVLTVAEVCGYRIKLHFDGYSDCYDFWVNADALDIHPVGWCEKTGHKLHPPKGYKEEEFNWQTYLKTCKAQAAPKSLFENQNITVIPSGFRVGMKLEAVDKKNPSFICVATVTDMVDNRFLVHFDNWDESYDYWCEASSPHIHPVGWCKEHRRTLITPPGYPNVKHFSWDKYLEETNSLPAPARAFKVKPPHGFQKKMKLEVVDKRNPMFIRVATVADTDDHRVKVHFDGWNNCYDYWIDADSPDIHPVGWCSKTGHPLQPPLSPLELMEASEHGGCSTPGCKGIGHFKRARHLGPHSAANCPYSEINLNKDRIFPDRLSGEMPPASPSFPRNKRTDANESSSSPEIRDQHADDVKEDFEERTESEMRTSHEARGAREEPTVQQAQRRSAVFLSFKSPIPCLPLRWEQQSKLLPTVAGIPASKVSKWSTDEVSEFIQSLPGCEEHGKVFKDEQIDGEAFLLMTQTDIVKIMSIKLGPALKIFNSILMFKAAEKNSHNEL
Sequence of UniProt P51589 (whole entry, looked up): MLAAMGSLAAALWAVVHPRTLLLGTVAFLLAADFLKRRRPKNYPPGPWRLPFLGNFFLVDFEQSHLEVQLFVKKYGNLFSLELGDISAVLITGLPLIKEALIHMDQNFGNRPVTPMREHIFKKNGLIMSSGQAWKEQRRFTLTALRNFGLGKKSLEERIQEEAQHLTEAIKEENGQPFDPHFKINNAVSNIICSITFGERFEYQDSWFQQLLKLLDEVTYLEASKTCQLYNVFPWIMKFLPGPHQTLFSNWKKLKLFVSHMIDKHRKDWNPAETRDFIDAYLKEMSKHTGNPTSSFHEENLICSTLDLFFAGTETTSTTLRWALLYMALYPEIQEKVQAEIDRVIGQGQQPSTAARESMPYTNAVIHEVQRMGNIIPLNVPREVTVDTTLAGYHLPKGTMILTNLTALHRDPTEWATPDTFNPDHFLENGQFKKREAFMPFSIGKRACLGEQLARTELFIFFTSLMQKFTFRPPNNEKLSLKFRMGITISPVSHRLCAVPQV
Sequence of UniProt P10636 (whole entry, looked up): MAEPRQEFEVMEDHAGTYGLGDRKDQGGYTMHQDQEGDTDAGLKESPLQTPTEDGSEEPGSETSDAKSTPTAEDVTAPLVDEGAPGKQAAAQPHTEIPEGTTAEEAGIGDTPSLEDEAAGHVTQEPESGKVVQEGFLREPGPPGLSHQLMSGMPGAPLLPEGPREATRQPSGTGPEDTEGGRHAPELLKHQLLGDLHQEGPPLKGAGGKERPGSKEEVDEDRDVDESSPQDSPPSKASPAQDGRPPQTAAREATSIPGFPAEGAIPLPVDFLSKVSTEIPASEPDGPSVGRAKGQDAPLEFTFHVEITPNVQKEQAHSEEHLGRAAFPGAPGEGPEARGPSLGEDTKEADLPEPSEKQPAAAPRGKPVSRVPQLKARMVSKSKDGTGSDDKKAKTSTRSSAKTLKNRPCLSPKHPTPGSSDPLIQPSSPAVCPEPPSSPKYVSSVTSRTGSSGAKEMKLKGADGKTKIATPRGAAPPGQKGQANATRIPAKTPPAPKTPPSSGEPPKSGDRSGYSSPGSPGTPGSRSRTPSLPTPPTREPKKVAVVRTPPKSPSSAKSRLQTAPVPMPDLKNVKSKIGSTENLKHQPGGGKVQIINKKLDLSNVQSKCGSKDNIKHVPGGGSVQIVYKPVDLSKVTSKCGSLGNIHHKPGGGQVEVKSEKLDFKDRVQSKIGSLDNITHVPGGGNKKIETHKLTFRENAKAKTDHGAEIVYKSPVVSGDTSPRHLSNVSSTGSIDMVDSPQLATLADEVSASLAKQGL

SMILES	target	test	system	conditions	scale	measurement	result
O=C(CN1CN(c2ccccc2)C2(CCN(C(=O)c3ccc4[nH]ncc4c3)CC2)C1=O)Nc1ccccn1	CYP2D6	enzyme activity, inhibitor				IC50	> 50 µM
O=C(CCCCCCC(=O)Nc1ccccc1)NO	CYP1A2	enzyme activity, inhibitor, Vivid fluorescent				IC50	7.58 µM
O=C(c1ccc(C(=O)N2CCC(N3CCCCC3)CC2)cc1)N1CCC(N2CCCCC2)CC1	Lethal(3)malignant brain tumor-like protein 3 (Homo sapiens, UniProt Q96JM7)	FRAP	human cells	1 µM		FRAP recovery half-time	28.5 s
Nc1nc(SCc2ccc(Cl)cc2)nn1S(=O)(=O)c1ccc2c(c1)CCO2	CYP1A2	enzyme activity, inhibitor	human, liver microsomes	10 µM		inhibition	34%
CNC(=O)C1CCCN(C(=O)C2CC3CCC2N3C(=O)[C@@H]2C[C@@H](O)CN2C(=O)NCc2cccc(Cl)c2F)C1 (mixture of isomers)	Cytochrome P450 2C8 (CYP2C8, Homo sapiens, UniProt P10632)	preincubation without NADPH	human	0.0686 µM	baseline: negative control	remaining activity	96.5% and 103%
[18F]c1ncccc1-c1ccc2c(n1)[nH]c1ccncc12	Microtubule-associated protein tau (MAPT, Homo sapiens, UniProt P10636)	PET imaging	healthy control subjects	intravenous, dose not given, first 5 min		initial brain uptake	~2 SUV
CN(CC(F)(F)F)C(=O)CN1CN(c2ccccc2)C2(CCN(C(=O)c3ccc4[nH]ncc4c3)CC2)C1=O	CYP2D6	enzyme activity, inhibitor				IC50	20 µM
C=C(NC(=O)c1csc(-c2nc3c(cc2O)-c2nc(cs2)C(=O)NC(C(C)O)C(=O)NC(=C(C)OC)c2nc(cs2)C(=O)NC2c4nc(cs4)C(=O)NC(COC(=O)c4c5c6c(cccc6n4O)COC(=O)C(OC4CC(C)(O)C(N(C)C)C(C)O4)C2OC5)c2nc-3cs2)n1)C(N)=O (stereo not shown)	CYP1A2	enzyme activity, inhibitor		up to 50 µM, pH 7.4		remaining activity	> 70%
[2H]c1c(NS(C)(=O)=O)c([2H])c2c(C(=O)c3ccc(OCCCN(CCCC)CCCC)cc3)c(CCCC)oc2c1[2H]	Cytochrome P450 2J2 (CYP2J2, Homo sapiens, UniProt P51589)	inactivator		with: astemizole substrate		kinact	0.03 ± 0.005 min⁻¹
C=CC(=O)Nc1cc(Nc2nccc(-c3cn(C)c4ccccc34)n2)c(OCC(F)(F)F)nc1N(C)CCN(C)C	CYP1A2	substrate, substrate depletion		3 µM, 60 min, normalised to liver abundance		contribution to metabolism	2.61%
